Published values from different studies.
Numbers after ± are the reported error.
Target: Cytochrome P450 2C9 (CYP2C9, Homo sapiens, UniProt P11712)
UniProt P11712, sequence (whole entry, looked up): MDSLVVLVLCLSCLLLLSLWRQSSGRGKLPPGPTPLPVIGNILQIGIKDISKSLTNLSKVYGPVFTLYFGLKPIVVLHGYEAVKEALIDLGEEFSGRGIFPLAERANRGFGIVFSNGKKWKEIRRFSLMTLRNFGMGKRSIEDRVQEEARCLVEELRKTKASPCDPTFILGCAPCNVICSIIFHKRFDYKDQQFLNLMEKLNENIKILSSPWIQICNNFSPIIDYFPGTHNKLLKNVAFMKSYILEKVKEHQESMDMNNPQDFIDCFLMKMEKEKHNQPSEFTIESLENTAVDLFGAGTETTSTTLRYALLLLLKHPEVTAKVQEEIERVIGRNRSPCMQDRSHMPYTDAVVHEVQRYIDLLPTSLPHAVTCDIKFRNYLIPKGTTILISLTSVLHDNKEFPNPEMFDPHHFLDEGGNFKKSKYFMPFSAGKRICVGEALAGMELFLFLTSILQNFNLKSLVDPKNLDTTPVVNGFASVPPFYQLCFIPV

NC/C(=C\F)COc1cccc(Cn2c(=S)[nH]c(=O)c3[nH]cnc32)c1 gave an IC50 of > 10 µM (enzyme activity, inhibitor; CYP2C9 screen).
For Cc1cccnc1C(=O)Nc1ccc(N2C(=O)c3cccc(Cl)c3C2=O)c(Cl)c1, the IC50 was > 30 µM (enzyme activity, inhibitor; 2C9).
For Cc1nc(-c2cnc(NC(C)C)n(C)c2=O)ccc1Oc1ccnc(-c2cnn(C)c2)c1, the IC50 was 84 µM (time-dependent inhibition, inhibitor; 30 min preincubation without NADPH).
COc1cc(O)c(CC=C(C)C)c2c1C(=O)CC(c1ccc(O)cc1)O2 (stereo not drawn) gave an IC50 of 2.1 ± 0.3 µM (enzyme activity, inhibitor; human liver microsomes; pH 7.4, together with: tolbutamide).
For Cc1cc(OC2COC2)cc(C(=O)Nc2ccc(F)cn2)n1, the IC50 was > 30 µM (inhibitor).
CCCCCNC(=N)N/N=C/c1c[nH]c2ccc(OC)cc12 has an IC50 of 7.9 µM (enzyme activity, inhibitor; together with: MFC substrate).
With N#Cc1ccc(Nc2nc(N)cc(Oc3c(F)cc(-c4ccc(C#N)cc4)cc3F)n2)cc1 the IC50 was 14.6 ± 2.7 µM (human liver microsomes; together with: diclofenac 50 µM).
CC(C)=CCc1c(O)cc(O)c2c1O[C@H](c1ccc(O)cc1)CC2=O has an IC50 of 1.1 ± 0.2 µM (inhibitor; pH 7.4).
CCCN(CCC)CCc1cccc2c1CC(=O)N2 has an IC50 of > 1000 µM (enzyme activity, inhibitor; together with: MFC substrate).
